Results of several laboratories.
Parts stem from different laboratories: compare values within a part only.
UniProt Q99759, sequence (whole entry, looked up): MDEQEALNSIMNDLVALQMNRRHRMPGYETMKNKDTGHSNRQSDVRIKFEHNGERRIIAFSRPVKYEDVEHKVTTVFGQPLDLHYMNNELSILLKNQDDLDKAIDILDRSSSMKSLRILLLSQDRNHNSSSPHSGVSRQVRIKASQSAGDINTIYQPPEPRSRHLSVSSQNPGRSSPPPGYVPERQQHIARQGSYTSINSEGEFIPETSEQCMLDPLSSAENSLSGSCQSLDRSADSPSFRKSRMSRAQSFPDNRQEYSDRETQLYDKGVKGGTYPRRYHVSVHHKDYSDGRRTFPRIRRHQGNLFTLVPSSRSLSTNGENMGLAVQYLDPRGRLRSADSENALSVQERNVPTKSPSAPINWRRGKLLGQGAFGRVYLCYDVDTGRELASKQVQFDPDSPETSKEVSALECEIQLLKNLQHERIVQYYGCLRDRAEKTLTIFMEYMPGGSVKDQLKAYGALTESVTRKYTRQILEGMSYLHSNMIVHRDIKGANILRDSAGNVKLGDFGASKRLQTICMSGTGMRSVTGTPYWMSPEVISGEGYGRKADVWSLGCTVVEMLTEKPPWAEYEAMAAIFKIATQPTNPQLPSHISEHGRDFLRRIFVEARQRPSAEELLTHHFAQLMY
UniProt P11362, sequence (whole entry, looked up): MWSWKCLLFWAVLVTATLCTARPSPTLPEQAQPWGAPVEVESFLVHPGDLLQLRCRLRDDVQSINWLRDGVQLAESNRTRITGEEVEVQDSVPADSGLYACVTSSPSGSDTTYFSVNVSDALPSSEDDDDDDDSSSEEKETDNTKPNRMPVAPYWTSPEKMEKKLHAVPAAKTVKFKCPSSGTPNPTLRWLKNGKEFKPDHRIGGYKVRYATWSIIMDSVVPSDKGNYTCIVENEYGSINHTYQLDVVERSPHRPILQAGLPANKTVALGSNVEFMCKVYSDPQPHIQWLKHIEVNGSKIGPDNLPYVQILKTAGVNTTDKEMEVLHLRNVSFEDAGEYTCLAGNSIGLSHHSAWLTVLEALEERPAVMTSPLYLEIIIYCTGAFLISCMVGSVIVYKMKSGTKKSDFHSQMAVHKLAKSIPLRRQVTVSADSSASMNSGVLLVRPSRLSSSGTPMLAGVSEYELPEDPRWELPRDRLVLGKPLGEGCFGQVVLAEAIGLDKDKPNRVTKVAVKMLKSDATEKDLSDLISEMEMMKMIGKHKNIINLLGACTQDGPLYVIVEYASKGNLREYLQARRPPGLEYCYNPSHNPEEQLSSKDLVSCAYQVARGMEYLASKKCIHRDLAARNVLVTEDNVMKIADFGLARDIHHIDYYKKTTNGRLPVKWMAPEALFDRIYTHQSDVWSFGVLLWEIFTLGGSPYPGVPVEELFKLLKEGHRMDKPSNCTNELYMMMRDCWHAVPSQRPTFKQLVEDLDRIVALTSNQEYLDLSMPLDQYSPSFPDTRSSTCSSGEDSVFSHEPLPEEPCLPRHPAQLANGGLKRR
UniProt P10721, sequence (whole entry, unmodified, looked up): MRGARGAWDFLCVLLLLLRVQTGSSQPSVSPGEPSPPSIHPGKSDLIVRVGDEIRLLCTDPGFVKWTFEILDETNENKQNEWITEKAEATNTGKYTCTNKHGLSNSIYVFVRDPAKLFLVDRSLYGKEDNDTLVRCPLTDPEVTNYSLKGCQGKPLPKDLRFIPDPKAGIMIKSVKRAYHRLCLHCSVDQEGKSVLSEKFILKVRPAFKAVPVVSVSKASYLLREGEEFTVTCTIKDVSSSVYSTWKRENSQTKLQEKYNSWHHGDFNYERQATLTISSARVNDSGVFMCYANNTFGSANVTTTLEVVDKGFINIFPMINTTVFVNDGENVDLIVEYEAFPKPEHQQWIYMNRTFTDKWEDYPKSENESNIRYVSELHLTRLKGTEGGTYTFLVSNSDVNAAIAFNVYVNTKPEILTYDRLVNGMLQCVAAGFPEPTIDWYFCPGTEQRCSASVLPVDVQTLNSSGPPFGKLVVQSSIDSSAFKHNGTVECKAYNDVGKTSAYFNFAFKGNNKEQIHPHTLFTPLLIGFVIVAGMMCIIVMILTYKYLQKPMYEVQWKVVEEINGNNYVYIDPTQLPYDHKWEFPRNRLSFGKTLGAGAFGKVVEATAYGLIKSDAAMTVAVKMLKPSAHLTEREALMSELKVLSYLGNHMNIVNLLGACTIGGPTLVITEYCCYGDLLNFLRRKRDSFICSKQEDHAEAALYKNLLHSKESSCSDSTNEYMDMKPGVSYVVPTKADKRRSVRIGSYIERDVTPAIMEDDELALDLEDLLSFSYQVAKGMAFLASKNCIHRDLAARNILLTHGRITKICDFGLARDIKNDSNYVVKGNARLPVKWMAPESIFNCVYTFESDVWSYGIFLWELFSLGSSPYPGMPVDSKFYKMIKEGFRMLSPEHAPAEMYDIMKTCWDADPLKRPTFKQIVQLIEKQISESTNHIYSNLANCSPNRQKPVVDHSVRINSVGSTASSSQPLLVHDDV

Sample 1 — tested at: 1 µM; endpoint: remaining binding
SMILES: COc1ccc2[nH]c3c4[nH]c5ccc(OC)cc5c4c4c(c3c2c1)C(=O)NC4=O
TNIK (Homo sapiens, UniProt Q9UKE5); binding, competition with immobilised ligand: 3%
TXK (Homo sapiens, UniProt P42681); binding, competition with immobilised ligand: 100%
KIT (Homo sapiens, UniProt P10721, D816V); binding: 1.7%
CIT (Homo sapiens, UniProt O14578); binding, competition with immobilised ligand: 35%
ABL1 (Homo sapiens, UniProt P00519, Y253F); binding: 53%
MAST1 (Homo sapiens, UniProt Q9Y2H9); binding: 45%
Tyrosine-protein kinase JAK3, JH1 (JAK3, Homo sapiens, UniProt P52333); cell-free assay, competition with immobilised ligand: 47%
ABL1 (Homo sapiens, UniProt P00519, F317L): 75%
KIT (Homo sapiens, UniProt P10721, D816H); binding: 6.6%
FGFR1 (Homo sapiens, UniProt P11362); binding, competition with immobilised ligand: 100%
PRKX (Homo sapiens, UniProt P51817); binding: 23%

Sample 2 — read-out: enzyme activity; action: inhibitor; tested at: 0.5 µM; relative to: control; endpoint: remaining activity
Compound: CCN(CC)C(=O)c1ccc(Nc2nc(OCC3CCCCC3)c3[nH]cnc3n2)cc1
CAMKK2 (Homo sapiens, UniProt Q96RR4): 97.5%
MAP3K3 (Homo sapiens, UniProt Q99759): 47.3%
PRKACA (Homo sapiens, UniProt P17612): 93.7%
OXSR1 (Homo sapiens, UniProt O95747): 99%
GRK3 (Homo sapiens, UniProt P35626): 92.7%
Cyclin-dependent kinase 4, with cyclin D1 (CDK4, Homo sapiens, UniProt P11802): 82%
PRKCA (Homo sapiens, UniProt P17252): 82.5%
CAMK2D (Homo sapiens, UniProt Q13557): 94.5%
CHEK2 (Homo sapiens, UniProt O96017): 71.3%
IKBKE (Homo sapiens, UniProt Q14164): 77.9%
MAPK9 (Homo sapiens, UniProt P45984): 60.8%
Cyclin-dependent kinase 5, with p25 (CDK5, Homo sapiens, UniProt Q00535): 77.2%
NEK2 (Homo sapiens, UniProt P51955): 91.4%
TGFBR2 (Homo sapiens, UniProt P37173): 75.4%
cGMP-dependent protein kinase 1, isoform beta (PRKG1, Homo sapiens, UniProt Q13976): 96.1%
STK39 (Homo sapiens, UniProt Q9UEW8): 91.5%
Tyrosine-protein kinase Lyn, isoform B (LYN, Homo sapiens, UniProt P07948): 89.7%
IKBKB (Homo sapiens, UniProt O14920): 97.3%
TGFBR1 (Homo sapiens, UniProt P36897): 100%
Protein kinase C beta type, isoform beta-I (PRKCB, Homo sapiens, UniProt P05771): 103%
DAPK2 (Homo sapiens, UniProt Q9UIK4): 91.7%
DAPK1 (Homo sapiens, UniProt P53355): 81.5%
STK10 (Homo sapiens, UniProt O94804): 57.3%

Sample 3 — tested at: 1 µM; endpoint: remaining binding
Structure (SMILES): C[C@@]1(Cc2ccc(C#N)cc2)C(=O)N(c2cc(Cl)cc(Cl)c2)c2ncc(C(=O)NC3(c4nc(C5CCC5)no4)CC3)n21
FGFR1 (Homo sapiens, UniProt P11362); cell-free assay, competition with immobilised ligand: 100%
EGFR (Homo sapiens, UniProt P00533, del747-750/T751S); cell-free assay, competition with immobilised ligand: 100%
TTK (Homo sapiens, UniProt P33981); cell-free assay, competition with immobilised ligand: 94%
CDK19 (Homo sapiens, UniProt Q9BWU1); competition binding: 76%
EGFR (Homo sapiens, UniProt P00533, L858R); cell-free assay, competition with immobilised ligand: 100%
SBK1 (Homo sapiens, UniProt Q52WX2); cell-free assay, competition with immobilised ligand: 95%
DMPK (Homo sapiens, UniProt Q09013); cell-free assay, competition with immobilised ligand: 100%
MAP3K3 (Homo sapiens, UniProt Q99759); cell-free assay, competition with immobilised ligand: 100%
MAP3K1 (Homo sapiens, UniProt Q13233); cell-free assay, competition with immobilised ligand: 100%
FLT3 (Homo sapiens, UniProt P36888, D835V/ITD); cell-free assay, competition with immobilised ligand: 100%
MYLK2 (Homo sapiens, UniProt Q9H1R3); cell-free assay, competition with immobilised ligand: 100%
CDK13 (Homo sapiens, UniProt Q14004); cell-free assay, competition with immobilised ligand: 100%
EGFR (Homo sapiens, UniProt P00533, T790M); cell-free assay, competition with immobilised ligand: 86%
CDC42BPB (Homo sapiens, UniProt Q9Y5S2); cell-free assay, competition with immobilised ligand: 100%
STK36 (Homo sapiens, UniProt Q9NRP7); cell-free assay, competition with immobilised ligand: 100%
HASPIN (Homo sapiens, UniProt Q8TF76); cell-free assay, competition with immobilised ligand: 100%
Ribosomal protein S6 kinase alpha-6, C-terminal kinase domain (RPS6KA6, Homo sapiens, UniProt Q9UK32); cell-free assay, competition with immobilised ligand: 100%
NEK5 (Homo sapiens, UniProt Q6P3R8); cell-free assay, competition with immobilised ligand: 100%
BMP2K (Homo sapiens, UniProt Q9NSY1); cell-free assay, competition with immobilised ligand: 100%
MYLK4 (Homo sapiens, UniProt Q86YV6); cell-free assay, competition with immobilised ligand: 100%
PIK3CA (Homo sapiens, UniProt P42336, Q546K); cell-free assay, competition with immobilised ligand: 88%

Sample 4 — read-out: enzyme activity; action: inhibitor; tested at: 77 µM; endpoint: remaining activity
Target: DNA polymerase theta, ATPase domain (POLQ, Homo sapiens, UniProt O75417)
UniProt O75417, sequence (whole entry, unmodified, looked up): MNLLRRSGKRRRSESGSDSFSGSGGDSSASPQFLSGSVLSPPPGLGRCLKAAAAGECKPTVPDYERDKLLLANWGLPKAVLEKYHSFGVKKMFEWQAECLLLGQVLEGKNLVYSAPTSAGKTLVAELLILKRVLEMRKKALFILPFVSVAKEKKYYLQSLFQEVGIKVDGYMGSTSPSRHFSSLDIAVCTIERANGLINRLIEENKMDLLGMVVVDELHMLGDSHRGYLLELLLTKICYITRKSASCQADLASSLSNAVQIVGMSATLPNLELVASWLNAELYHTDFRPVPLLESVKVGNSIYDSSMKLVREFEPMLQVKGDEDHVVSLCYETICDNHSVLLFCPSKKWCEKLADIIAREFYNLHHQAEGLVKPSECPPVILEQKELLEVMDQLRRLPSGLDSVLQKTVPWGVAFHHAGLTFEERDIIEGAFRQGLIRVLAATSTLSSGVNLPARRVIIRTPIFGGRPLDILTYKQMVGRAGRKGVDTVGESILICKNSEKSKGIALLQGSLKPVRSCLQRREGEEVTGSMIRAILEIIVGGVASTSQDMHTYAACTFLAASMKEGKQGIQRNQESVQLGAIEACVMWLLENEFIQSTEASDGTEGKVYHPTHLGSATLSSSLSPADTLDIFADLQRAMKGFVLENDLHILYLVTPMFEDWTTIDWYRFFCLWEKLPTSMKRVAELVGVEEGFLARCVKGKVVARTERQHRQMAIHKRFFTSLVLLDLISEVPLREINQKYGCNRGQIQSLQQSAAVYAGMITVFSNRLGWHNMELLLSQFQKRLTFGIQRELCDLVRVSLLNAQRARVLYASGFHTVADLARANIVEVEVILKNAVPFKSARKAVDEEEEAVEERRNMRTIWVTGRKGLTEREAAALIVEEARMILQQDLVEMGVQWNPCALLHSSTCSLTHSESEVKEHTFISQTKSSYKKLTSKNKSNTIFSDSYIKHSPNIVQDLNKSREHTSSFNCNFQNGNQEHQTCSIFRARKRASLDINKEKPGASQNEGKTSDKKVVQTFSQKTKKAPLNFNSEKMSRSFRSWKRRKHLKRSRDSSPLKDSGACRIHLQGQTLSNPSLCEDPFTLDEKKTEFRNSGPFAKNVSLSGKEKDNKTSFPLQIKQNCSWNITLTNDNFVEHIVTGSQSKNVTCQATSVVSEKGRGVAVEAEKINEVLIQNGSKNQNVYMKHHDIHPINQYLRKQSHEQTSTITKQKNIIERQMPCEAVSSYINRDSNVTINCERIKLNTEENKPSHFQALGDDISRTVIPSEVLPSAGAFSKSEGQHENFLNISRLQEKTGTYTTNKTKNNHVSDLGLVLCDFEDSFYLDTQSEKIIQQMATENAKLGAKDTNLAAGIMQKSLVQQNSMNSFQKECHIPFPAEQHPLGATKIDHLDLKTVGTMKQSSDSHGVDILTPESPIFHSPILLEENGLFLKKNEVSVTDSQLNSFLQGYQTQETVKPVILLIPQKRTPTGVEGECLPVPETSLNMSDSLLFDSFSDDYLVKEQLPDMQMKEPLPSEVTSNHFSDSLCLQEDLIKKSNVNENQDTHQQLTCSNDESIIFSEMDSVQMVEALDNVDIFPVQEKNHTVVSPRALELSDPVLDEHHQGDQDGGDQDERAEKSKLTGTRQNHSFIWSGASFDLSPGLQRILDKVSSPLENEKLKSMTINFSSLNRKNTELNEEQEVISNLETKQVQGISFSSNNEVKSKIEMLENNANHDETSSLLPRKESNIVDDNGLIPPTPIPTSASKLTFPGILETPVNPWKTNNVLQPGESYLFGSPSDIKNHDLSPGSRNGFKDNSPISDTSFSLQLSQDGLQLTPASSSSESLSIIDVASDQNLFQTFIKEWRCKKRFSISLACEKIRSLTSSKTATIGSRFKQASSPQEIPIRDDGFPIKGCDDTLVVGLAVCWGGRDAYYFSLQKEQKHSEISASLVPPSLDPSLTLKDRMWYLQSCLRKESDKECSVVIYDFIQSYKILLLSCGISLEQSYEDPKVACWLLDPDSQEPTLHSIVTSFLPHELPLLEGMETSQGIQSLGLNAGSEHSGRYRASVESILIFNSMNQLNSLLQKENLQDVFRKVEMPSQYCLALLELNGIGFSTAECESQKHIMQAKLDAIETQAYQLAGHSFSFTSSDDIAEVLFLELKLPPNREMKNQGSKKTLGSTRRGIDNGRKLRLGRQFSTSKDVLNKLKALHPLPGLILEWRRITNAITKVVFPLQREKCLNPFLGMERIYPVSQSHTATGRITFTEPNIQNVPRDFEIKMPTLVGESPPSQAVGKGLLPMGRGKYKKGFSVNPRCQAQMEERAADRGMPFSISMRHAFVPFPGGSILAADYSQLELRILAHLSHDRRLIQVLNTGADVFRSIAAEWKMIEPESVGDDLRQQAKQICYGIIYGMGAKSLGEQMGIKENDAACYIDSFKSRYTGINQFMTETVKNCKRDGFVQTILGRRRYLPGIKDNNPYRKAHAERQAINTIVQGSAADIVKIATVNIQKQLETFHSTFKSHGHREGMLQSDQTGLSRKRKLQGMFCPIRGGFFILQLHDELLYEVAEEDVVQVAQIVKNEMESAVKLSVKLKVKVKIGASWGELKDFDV
O=c1ccc2c(OCCCCc3ccccc3)c3ccoc3cc2o1: 100%
O=C(O)c1ccccc1O: 90.6%
CC(C)OC(=O)[C@H](C)N[P@](=O)(OC[C@H]1O[C@@H](n2ccc(=O)[nH]c2=O)[C@](C)(F)[C@@H]1O)Oc1ccccc1: 100%
CC(C)NCC(O)COc1cccc2[nH]ccc12 (stereo not drawn): 93.1%
C=C(NC(=O)C(=C)NC(=O)c1csc(C2=N[C@@H]3c4csc(n4)[C@H]4NC(=O)c5csc(n5)[C@H]([C@](C)(O)[C@@H](C)O)NC(=O)[C@H]5CSC(=N5)/C(=C/C)NC(=O)[C@H]([C@@H](C)O)NC(=O)c5csc(n5)[C@]3(CC2)NC(=O)[C@H](C)NC(=O)C(=C)NC(=O)[C@H](C)NC(=O)[C@H]([C@@H](C)CC)N[C@@H]2C=Cc3c([C@H](C)O)cc(nc3[C@H]2O)C(=O)O[C@@H]4C)n1)C(N)=O: 102%
COc1ccc2c(c1)CC[C@@H]1[C@@H]2CC[C@]2(C)[C@@H](NCCCCCCN3C(=O)C=CC3=O)CC[C@@H]12: 103%
CC(C)(C)NC(=O)[C@@H]1C[C@@H]2CCCC[C@@H]2CN1C[C@@H](O)[C@H](Cc1ccccc1)NC(=O)[C@H](CC(N)=O)NC(=O)c1ccc2ccccc2n1: 80%
C[C@@H]1CCN(C(=O)CC#N)C[C@@H]1N(C)c1ncnc2[nH]ccc12: 101%
